Measured values collected from several papers.
Numbered parts are unrelated; each lists some results of a single study.

Study 1
Target: Prothrombin, mature alpha-thrombin (F2, Homo sapiens, UniProt P00734)
Technique: aptamer microarray, sandwich
Form: DNA with 2'F-ANA
Matrix: in vitro
Concentration: 200 nM
Setting: whole 15-mer aptamer, many near background
With: Cy3 exosite-II aptamer, 400 nM
Direction: higher = stronger binding
Oligonucleotide: GGTTGGTGTGGTTGG
Modification	mean fluorescence intensity [a.u.]
2'F-ANA at 5 6 7 12 13 14 15	46.8
2'F-ANA at 2 3 5 8 9 10 12 13 15	60.2
2'F-ANA at 2 4 5 8 10 12	58.7
2'F-ANA at 3 4 6 7 8 9 11 12	822
2'F-ANA at 2 5 8 9 11 12 13 14 15	46.5
2'F-ANA at 3 7 9 10 11 13 15	496
2'F-ANA at 2 3 5 7 8 9	113
2'F-ANA at 2 3 8 9 10 13 14	287
2'F-ANA at 2 3 4 6 7 8 9 11 12	679
2'F-ANA at 7 9 10 11 12 13 14	111
2'F-ANA at 2 6 8 9 10 13	99.7
2'F-ANA at 1 2 3 5 6 8 9 14	49.2
2'F-ANA at 5 9 11 12 14 15	46.3
2'F-ANA at 2 4 6 8 9 10 12	113
2'F-ANA at 1 2 3 6 7 10 12 13 14	54.7
2'F-ANA at 3 4 8 12	1320
2'F-ANA at 1 3 4 5 6 7 8 9 10 12 13 14 15	47.3

Study 2
Target: RNA binding protein fox-1 homolog 2, RRM domain, GST-SBP tag (RBFOX2, Homo sapiens, UniProt O43251-10, residues 100-194)
Technique: RNA Bind-n-Seq
Form: RNA
Matrix: in vitro
Concentration: 365 nM
Setting: natural RNA segment, single round, ends assumed
Baseline: no-protein control
Direction: higher = stronger binding
All sequences stand within: GGGAGUUCUACAGUCCGACGAUC … UGGAAUUCUCGGGUGCCAA
Residues (chain): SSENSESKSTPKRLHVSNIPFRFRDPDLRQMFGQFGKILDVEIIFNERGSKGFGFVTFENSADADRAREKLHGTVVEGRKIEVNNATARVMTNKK
Oligonucleotide	RBNS enrichment (R)
GGUUGUUUGGACCGAUAAGUGUGCUUAAUCCUGAGGCAAAGUAGUGAAUAUGUUUUAUAUGUUAUGAAGAAAAGAAUUGUUGUAAGUUUUUGAUUCUACUCUUAUAUGCU	1.32
AAUUAUCAAAGGCCCCAUUUGUCAGGGGUGAGAGAAAAGUCAAAAGAUAAAUUGGGGCCUUGUAAAAGGCCAGGGUAAAAUGUCUCAGGCAAGCAAAAGAUUGUCCCCUU	0.498
GGAGCUCUUCAAGAAAAGCAGAGUUCUUCUCGUUCUUGUUCAAUCCUAAAAGCAGAUGUUUUGCCAAAUCUCCAAACUAGAGGACAAAGACAAGGGGACAAUGACCAUCA	0.345
UAGGAAUUCCUGUCCUAUUUGAGAUGAACUAUAUCCUGUACCUCUGUGCUCUGUGUCUGCAUGAAGGCUCAGCCUUUAGAGGCACUCCUUCUAGUUGCAUUAGUACUGUC	1.47
CUGUGGCCUCCUUGUGGUGGUCCCUCUUCCCACGUGCAGCCCUGUUGGGAAGAAAGGAAGAAAACAGGUCCCUCCAGGGGUGCUGCUGCCUAAGCCACCCACAUAAGUAC	0.368
UUUACAUGCCUAAAUAUCUGCAGGUUUUCUUACAGGUAAAGCGAAGUGCUUUGAAAAGUUUAGAUUAUACAUGUGUGACAGAUGCGGCAUAUUUGCUCUAUUAACACAGA	0.374
CUUUGACAUCUUUUAAAGAGUCUGGAUAAAUCUGACUCGUUGCUCAAUAGGGUUUAUUUGGCAGUGGGAUUCACAUCUUCCUGCACUCCUGCCAGCAGUACAGGGCACAG	0.448
GAUAGAGGCAACUCCCAGGCCAGUGAGCUUUACUUGCCGUGUAAAAGGAGGAAAGGGGUGGAAAAAAACCGACUUUCUGCAUUUAACUACAAAAAAAGUUUAUGUUUAGU	0.424
GACACAUGUAAUGAAGGUCACAGUCCACAGGUGACAGAGAAAUCCAAACUGUUGAUUACAGGUGCACUACAGGUAUGCUCUUUCAGUCUAUCUGGGGGCACAUAGGUGAG	0.32
CCAUUGAUUCAGGAAGCAGAUUUUUUGAGUGCCUAUAUGUGAGACAGUGUGCUGGUUGAAGGCCUGAUGCUGUUAUUCCAGGAGACUGCAGGCCCUUGAUGCCAGGACUC	0.532
GCUGCACGUAUGCAGUAUCCUAUCUCUUUCUACAUCAGAUCAAAACACUAAGUUGGUGUACUGCCUCGACCUUUUUUCAGCUCAUCCUGGAACAUAUACAGAGUUGAGAG	0.418
UAAUGUUUGAAGUCUCAAAUGCACCGUAUUACGGUAAAUAACAUGGUUUUGAAAACUUUUUUUUAUUUUGUCACAGACCUGUUGUCAUAGUUGAAAUGAUGUUUAUUGUA	0.781

Study 3
Target: Centromere-binding protein 1, full length, N-terminal tag (CBF1, Saccharomyces cerevisiae, UniProt P17106, residues 1-351)
UniProt P17106, sequence (whole entry, looked up): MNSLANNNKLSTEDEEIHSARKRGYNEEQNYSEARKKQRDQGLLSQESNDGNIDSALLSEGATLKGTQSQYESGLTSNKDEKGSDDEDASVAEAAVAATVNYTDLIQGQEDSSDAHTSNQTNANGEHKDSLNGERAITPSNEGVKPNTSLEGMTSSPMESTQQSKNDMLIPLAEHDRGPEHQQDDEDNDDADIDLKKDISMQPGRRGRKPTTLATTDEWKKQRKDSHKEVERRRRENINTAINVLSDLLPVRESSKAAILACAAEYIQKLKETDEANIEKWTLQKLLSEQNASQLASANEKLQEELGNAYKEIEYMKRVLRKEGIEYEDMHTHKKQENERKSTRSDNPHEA
Technique: protein-binding microarray
Form: double-stranded DNA, one strand shown
Matrix: in vitro
Concentration: 0.8 µM
Setting: whole 60-bp probe, no competitor
Direction: higher = stronger binding
All sequences stand within: … GTCTTGATTCGCTTGACGCTGCTG
Oligonucleotide	fluorescence intensity [a.u.]
CCTAACTACTATATTGTCACCAGATAGCTTCGTACA	541
GAAGTGGCTAGGAATCACGGAGACCTCTTGACTTAG	553
GAAATCTAGGAAAAGATGGTGACGCCGTTTATCTAG	482
GAACGTATGTTGAAAAACGTGCGTAAATAAGGCTAG	749
GAACATGGTGTCTCTCTCATGATTGTGGTAGCCTAG	538
CCTAACTACTATAAGCACGTAAGATAGCTTCGTACA	524
GAACATATCGTTTACCACGTCGCCCCTTTTGTATAG	518
GAACAAAATCGAAGTGCCCACGTGCTGCTCATTTAG	6250
CCTAACTACTATAGGCGTGTGATATAGCTTCGTACA	611
GAACGATAAGCCTGTGACGTACTTATGCGGGAATAG	584
GAAGATATGATGGTGATGGTGACGGTGATGGTATAG	509
GAAACTTTACCTTATCAACTGATATTTGAAGATTAG	547
CTAGCAAGTTAATGTCACGGCAGCTAGTGACGCTTC	574
GAAGAATCCGCTTGGCGCGTGATTGAGCCAATGTAG	1060
GAATCGCGTCTTTCGCACGTTGAATCAGAACGATAG	565
CTATTCTGACAACGTGTTGTCATACCTGTTACGTTC	809
CTACATCCTGTATTTCACACGAGAGCAAAACACTTC	584
GAAAAAAGCACGTGGCACGAGAAACGCGCACGCTAG	9120
CCTAACTACTATAATCACAACATATAGCTTCGTACA	549
GAACTAAAAGGGAAACACGCCACACACCGCATATAG	566
GAAACTCGCAGTGATCACGGTTTGCTGCGTGTGTAG	767

Study 4
Target: RING finger protein unkempt homolog, zinc fingers 1-6, GST-SBP tag (UNK, Homo sapiens, UniProt Q9C0B0, residues 30-357)
Technique: RNA Bind-n-Seq
Form: RNA
Matrix: in vitro
Concentration: not given
Setting: RNA with constant flanks, human and mouse sites, ends assumed
Baseline: input RNA pool
Direction: higher = stronger binding
All sequences stand within: GGGAGUUCUACAGUCCGACGAUC … CAACAGAGGAUUGAGCAUCA
Construct (chain): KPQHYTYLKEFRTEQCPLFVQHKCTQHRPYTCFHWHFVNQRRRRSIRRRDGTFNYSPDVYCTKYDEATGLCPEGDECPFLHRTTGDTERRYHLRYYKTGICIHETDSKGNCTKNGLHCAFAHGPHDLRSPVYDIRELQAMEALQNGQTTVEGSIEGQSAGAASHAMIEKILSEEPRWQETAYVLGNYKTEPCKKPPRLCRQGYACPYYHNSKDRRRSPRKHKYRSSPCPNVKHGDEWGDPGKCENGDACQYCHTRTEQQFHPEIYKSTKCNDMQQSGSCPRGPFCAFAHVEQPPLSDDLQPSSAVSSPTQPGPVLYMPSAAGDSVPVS
Oligonucleotide	bound/input enrichment
AAGUUGCAACACAUCAACCCAUUAUUGCCUGCCUGCCUUAACAAAGAGGAGAGCAAAACCUUUGUUUCAAGUUUCAUGUCCGAAUUGUCUCCAGUCAGAGCAGAACUUCUUGGGUUCCUU	0.184 ratio
UGUCUUGAUGACACAACAGUAAAAUUUGAAAUAUGGGAUACAGCUGGUCAAGAACGGUAUCAUAGCUUAGCACCAAUGUACUACCGAGGAGCACAAGCAGCCAUAGUUGUGUAUGAUAUC	0.378 ratio
CACAAGAUGGAGCAGGAAAUGACCCGGUUACAUCGGAGAGUGUCAGAGGUGGAGGCUGUGCUUAGUCAGAAGGAGGUGGAGCUGAAGGCCUCUGAGACUCAGAGAUCCCUCCUGGAGCAG	0.161 ratio
CAAUUACUGGAAAAUAAAAGGAGUUCAUGUAGUUUUUGUCCAGGCUUGAGUCACCAUGAGUAGUAGUUUAGGAAAAGAAAAAGACUCUAAAGAAAAAGAUCCCAAAGUACCAUCAGCCAA	2.09 ratio
GGACCCGAUCACGCGUCAGGUGGGACAGCACAUUGAGAUGGAGCCAGAGUGGGAAGCAGCCUUCACACUGCAGAUGAAGCUGACACACGUCAUCUCAAUGGUGCAGGACUGGUGUGCUCU	0.0562 ratio
UUACAUUUAGGGUUUAUCAGAGCUUAAACUACUCUUAAAUUAUUUUCUAAACCUGUAGUACAAUGUAUCAUUGUAACUUCAACCAUUUUAUCCAAAGUAAACACCCAGCAAAAACAUAGU	1.59 ratio
GGGUGGGGGUUGUCAUUGCCAAUUGAGCUGCUGAUUCUUAUGAAUCACAUUCAGAACUCGCAUAGGGUUGACACUGUAAGGGGUGGGGAAAUCUAGCUAUUUUUUUUUCCCCAGCCCAUU	3.96 ratio
AUUGUCAGAUUUUGUGCUUGAUUUUAAGAAUGGAAUUGUGGGUAUCUUUCCUUUUUUUUUAAUGUAUCUUAACUGUUGCCUGUCAGUGUUUACAAACUAGUGCGUUGACGGCACCGUGUC	0.356 ratio
AUUUAGAAUGUUAAUAAAUUGCUCUGAGUUUCCUCAAGUCCAUUUUGUAAGAUCAGACCAUAGGUGGGUGUUGUUUCUUUUAAGUGUGUGUACUGUGUCCAAUGUUACAUUUUUAGAAGU	29.9 ratio
GGAGCAUUGCCCCCUGACCUCAGCUACAUCGUGCGAGCUAGGCAUGGUGGUGAGGACUACGUCUUCUCCCUGCUCACGGGCUACUGCGAGCCACCCACCGGGGUGUCACUGCGGGAAGGU	1.25 ratio
AGAGCUAGAAGAUGGUCCCGGUCCAGAUCCCGCUCUCGAUCGCCAUCAAGAUUAAGAACAAAAAGUAAGAGUUCAUCGUUUGGUAGAAAUGAGAGAGAUAAUUACUCUCCUCGGUGGAAG	0.32 ratio

Study 5
Organism: Saccharomyces cerevisiae
Read-out: binding
Technique: competitive growth deep sequencing
Form: peptide
Strain: cyclin E1-Cln2 fusion strain
Setting: peptide tiling library
Direction: direction not given
Molecule	enrichment score
GTPKRCLDLSNLSSGE	-0.219
DKYDEGLYRFNSLNDL	0.668
AEHPKPSACRNLFGPV	2.1
ASVLSKPIFCFVKD	0.768
QYQVVDDIVSKLVFDF	0.61
KRCATPVIIDEILPSK	1.17
ESSQLTVQAEFDMSAI	0.533
PHKTFRKLRLFDTPHT	-0.124
NESHLDKEHDAVEVAD	1.14
GPVKLEFDVSDGAT	0.336
HPESPPRKRLKSKGSD	3.51
LENIEPLQVSFAVLSS	1.53
EHCRVLFLDHVMYTIH	-0.575
DVSERGYVILPNDYFE	0.686
AKRSLGFLPQPVPL	-1.05
KVRRNLFNQELLSP	1.2
SPPRGRRLFPPGPAGF	0.202
EPRNLLSLFEDTLDPT	1.1

Excerpt of the above (study 5):
Molecule	enrichment score
AEHPKPSACRNLFGPV	2.1
ASVLSKPIFCFVKD	0.768
QYQVVDDIVSKLVFDF	0.61
KRCATPVIIDEILPSK	1.17
ESSQLTVQAEFDMSAI	0.533
PHKTFRKLRLFDTPHT	-0.124
NESHLDKEHDAVEVAD	1.14
GPVKLEFDVSDGAT	0.336
HPESPPRKRLKSKGSD	3.51
LENIEPLQVSFAVLSS	1.53
EHCRVLFLDHVMYTIH	-0.575
